Results gathered from unrelated publications.
A part holds a random share of what one study measured.

Sample 1 — method: RNA Bind-n-Seq; molecule type: RNA; medium: in vitro; tested at: 100 nM; relative to: input RNA pool; reading: higher = stronger binding; measurement: bound/input enrichment
Target: RING finger protein unkempt homolog, zinc fingers 1-6, SBP tag (UNK, Homo sapiens, UniProt Q9C0B0, residues 30-357)
Sequence of UniProt Q9C0B0 (30-357, looked up): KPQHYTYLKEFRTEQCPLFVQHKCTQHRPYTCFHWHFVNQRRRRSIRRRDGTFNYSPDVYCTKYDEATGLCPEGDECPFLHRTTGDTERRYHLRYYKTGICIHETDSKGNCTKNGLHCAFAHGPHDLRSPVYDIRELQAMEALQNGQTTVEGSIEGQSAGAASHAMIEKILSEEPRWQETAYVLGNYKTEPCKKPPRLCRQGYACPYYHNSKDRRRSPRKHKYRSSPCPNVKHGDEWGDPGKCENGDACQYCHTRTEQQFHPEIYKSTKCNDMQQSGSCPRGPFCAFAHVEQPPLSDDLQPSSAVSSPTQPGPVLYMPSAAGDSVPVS
Setting: RNA with constant flanks, vertebrate orthologous sites, ends assumed
GGGAGUUCUACAGUCCGACGAUCGCAGCAGUGAAAAAGCCCUUCUCCCAGCCCCUCUUGCUCUAGGAGAUGCAGACCUUCCCCUAGAAGAGCAAUUAAACUCAAUAAAUUUAUCUUUUCAGGAUGAUCCAGACUCCUCCAGUACAACAGAGGAUUGAGCAUCA: 0.976 ratio
GGGAGUUCUACAGUCCGACGAUCUUACAGUCAUUGAUGGACUCUAUUUUUUUAUUAUUACUUGGACCUUGGUCGUUUUUAUACUAGCAAAAUGUCUUGUUUUAAUUUGUGUUUUUUUUGGGGGGGGGGAGGGAGUGAACUUGCCAACAGAGGAUUGAGCAUCA: 3.05 ratio
GGGAGUUCUACAGUCCGACGAUCCUACACCAGAUACUUAAACUGUUUUAAAGUUACAAACAAGCUUUGCUUUUUGCAUUUAAAUAGAAUACUUUUAUAUUGUAAGUGCUUCAAAUGUGUGGAGAUGUUAGUUUGCUCUUAUAACAACAGAGGAUUGAGCAUCA: 0.514 ratio

Sample 2 — method: protein binding microarray; molecule type: double-stranded DNA, one strand shown; medium: in vitro; tested at: not given; relative to: not given; reading: higher = stronger binding; measurement: E-score
Target: Histone acetyltransferase KAT6A, winged helix 1, GST fusion (KAT6A, Homo sapiens, UniProt Q92794, residues 1-85)
Setting: 8-mer, flanks averaged, mean of 2 arrays, mostly near background
Residues (chain): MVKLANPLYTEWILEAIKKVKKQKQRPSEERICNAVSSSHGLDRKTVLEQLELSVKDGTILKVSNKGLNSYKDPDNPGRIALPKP
GAGTTCCA: -0.229
CATACCAG: -0.237
ACCAGTTA: -0.301
ACAACGTG: -0.0405
GCGCGAAC: 0.331
CTACTTTC: -0.0558

Sample 3 — method: universal PBM; molecule type: double-stranded DNA, one strand shown; medium: in vitro; tested at: 600 nM; reading: higher = stronger binding; measurement: E-score
Target: Sal-like protein 4, full length isoform A (SALL4, Homo sapiens, UniProt Q9UJQ4, residues 1-1053)
Sequence of UniProt Q9UJQ4 (whole entry, looked up): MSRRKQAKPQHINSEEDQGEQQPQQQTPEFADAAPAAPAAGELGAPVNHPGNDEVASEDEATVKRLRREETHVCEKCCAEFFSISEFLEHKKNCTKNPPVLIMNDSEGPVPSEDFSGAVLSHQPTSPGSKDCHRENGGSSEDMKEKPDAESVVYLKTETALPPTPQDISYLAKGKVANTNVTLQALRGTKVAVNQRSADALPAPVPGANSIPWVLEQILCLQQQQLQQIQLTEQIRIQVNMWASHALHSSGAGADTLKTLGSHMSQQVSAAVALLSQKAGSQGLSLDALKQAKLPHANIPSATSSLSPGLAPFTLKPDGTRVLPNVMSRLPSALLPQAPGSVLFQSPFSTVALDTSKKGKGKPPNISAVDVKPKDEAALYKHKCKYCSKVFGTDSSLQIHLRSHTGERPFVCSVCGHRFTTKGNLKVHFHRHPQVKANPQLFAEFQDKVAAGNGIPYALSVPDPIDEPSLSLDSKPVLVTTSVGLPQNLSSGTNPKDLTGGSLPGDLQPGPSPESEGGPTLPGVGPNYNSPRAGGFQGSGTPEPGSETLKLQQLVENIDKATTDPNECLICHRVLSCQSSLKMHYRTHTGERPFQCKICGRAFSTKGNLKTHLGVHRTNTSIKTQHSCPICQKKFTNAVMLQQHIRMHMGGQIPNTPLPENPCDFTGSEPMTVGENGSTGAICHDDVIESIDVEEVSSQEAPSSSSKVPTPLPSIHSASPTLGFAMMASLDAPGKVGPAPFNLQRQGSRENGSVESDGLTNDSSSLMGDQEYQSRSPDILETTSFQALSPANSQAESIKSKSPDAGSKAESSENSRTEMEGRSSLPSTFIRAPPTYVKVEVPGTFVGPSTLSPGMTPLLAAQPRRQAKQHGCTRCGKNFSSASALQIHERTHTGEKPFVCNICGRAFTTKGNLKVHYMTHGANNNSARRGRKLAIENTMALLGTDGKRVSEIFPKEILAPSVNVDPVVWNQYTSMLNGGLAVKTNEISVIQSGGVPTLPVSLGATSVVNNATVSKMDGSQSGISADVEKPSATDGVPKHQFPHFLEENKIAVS
Setting: 8-mer, flanks averaged, mean of replicates
ACACGAGT: 0.0225
TAAGGGAA: 0.208
ACCCCCGA: 0.0275
AGTGTGCA: 0.0254
AAGTGTAG: 0.0856
TCCTAGAA: 0.065
AAAACCAT: 0.279
AAATATGG: 0.354

Sample 4 — method: RNA Bind-n-Seq; molecule type: RNA; medium: in vitro; tested at: 200 nM; setting: whole 134-nt RNA, ends assumed; added: 150 mM LiCl; relative to: input library; reading: higher = stronger binding; measurement: log2 enrichment; all molecules: 7-deaza-guanosine replaces G
Target: Fragile X messenger ribonucleoprotein 1, C-terminal low-complexity region (Fmr1, Mus musculus, UniProt P35922)
GGGAGUUCUACAGUCCGACGAUCAAGUCCUGUGCUACACAUCGUAUGUACCGAAUCGUGUGUGUGUGUGUGUGUGUGUGAAAGUAUUAUGUUACGCCGUUCGGAUCUGCACUUUGGAAUUCUCGGGUGUCAAGG: -0.406
GGGAGUUCUACAGUCCGACGAUCUCCUGUGCUACACAUCGUAUGUACCGAAUCAAAUUUUUUUAAAUUUUUAAACCCCCAAAAAAGUAUUAUGUUACGCCGUUCGGAUCUGCAUGGAAUUCUCGGGUGUCAAGG: 0.975
GGGAGUUCUACAGUCCGACGAUCUCAAGUCCUGUGCUACACAUCGUAUGUACCGAAUCGGUUGGGGUUGGGGUUGGGGAAAGUAUUAUGUUACGCCGUUCGGAUCUGCACUUCUGGAAUUCUCGGGUGUCAAGG: -1.3

Mixed results
PhoQ, residues 284 288 289 292 302 303 NLGVHL
fold induction (PhoP, residues 12 14 15 18 19 LFHKL (Escherichia coli, UniProt P23836); Sort-seq, refers to: YFP reporter; E. coli; PhoQ-PhoP variant library, added: 10 µM Mg2+; relative to: high Mg2+ state, higher = stronger signaling): 2.4

Repeated from above (sample 3):
TAAGGGAA: 0.208
ACACGAGT: 0.0225
AAATATGG: 0.354
